Measurements pooled from the literature.
Numbered parts are unrelated; each lists some results of a single study. pIC50: −log10 of the molar value.

Study 1
Target: Histone acetyltransferase KAT6A, both winged helices, GST fusion (KAT6A, Homo sapiens, UniProt Q92794, residues 1-181)
Technique: protein binding microarray
Form: double-stranded DNA, one strand shown
Matrix: in vitro
Concentration: not given
Notes: 8-mer, flanks averaged, mean of 2 arrays, mostly near background
Baseline: not given
Reading: higher = stronger binding
Target sequence (chain): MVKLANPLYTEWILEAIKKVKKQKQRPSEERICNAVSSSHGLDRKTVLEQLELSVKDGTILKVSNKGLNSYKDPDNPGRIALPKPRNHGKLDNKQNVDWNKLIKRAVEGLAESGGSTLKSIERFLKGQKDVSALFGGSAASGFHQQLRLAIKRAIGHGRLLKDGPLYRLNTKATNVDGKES
Sequence	E-score
ATGAGGGC	-0.122
AATTTGGA	-0.232
CGGCTATC	0.275
CGCTTTAA	0.0502
CGATGGAG	0.0337
CGCCTACC	0.0937
CACACTTA	-0.197
CAACCCTC	-0.244

Study 2
Target: Ras GTPase-activating protein-binding protein 1, RRM domain (G3BP1, Homo sapiens, UniProt Q13283)
UniProt Q13283, sequence (whole entry, looked up): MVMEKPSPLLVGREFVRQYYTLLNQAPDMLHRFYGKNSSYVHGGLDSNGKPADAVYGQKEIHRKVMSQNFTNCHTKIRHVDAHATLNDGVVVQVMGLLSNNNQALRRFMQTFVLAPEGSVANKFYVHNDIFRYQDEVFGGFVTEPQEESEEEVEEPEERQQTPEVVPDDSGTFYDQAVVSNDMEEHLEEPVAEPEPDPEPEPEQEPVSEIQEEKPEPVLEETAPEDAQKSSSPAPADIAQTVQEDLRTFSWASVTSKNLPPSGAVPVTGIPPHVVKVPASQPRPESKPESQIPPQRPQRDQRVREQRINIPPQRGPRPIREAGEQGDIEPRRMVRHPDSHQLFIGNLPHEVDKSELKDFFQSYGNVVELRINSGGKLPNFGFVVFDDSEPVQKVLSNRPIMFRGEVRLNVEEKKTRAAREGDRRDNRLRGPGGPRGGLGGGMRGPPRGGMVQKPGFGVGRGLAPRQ
Technique: RNA Bind-n-Seq
Form: RNA
Matrix: in vitro
Concentration: 1 µM
Notes: whole 134-nt RNA, ends assumed
Together with: 150 mM KCl
Baseline: input library
Reading: higher = stronger binding
Shared flanks, not repeated: GGGAGUUCUACAGUCCGACGAUC … UGGAAUUCUCGGGUGUCAAGG
Sequence	log2 enrichment
UCAAGUCCUGUGCUACACAUCGUAUGUACCGAAUCGGGCCCGGCCCGGGCCCGGAAAGUAUUAUGUUACGCCGUUCGGAUCUGCACUUCC	-0.562
UAGGUGUUAUCUUCAGGAAGGCACACUGGACCUGCUAAAUUAACAAAUGGAAAGAAAGCGUAAGUACUUGAAGACGUUUACAACUUCAGA	-0.307
CUGUGCUACACAUCGUAUGUACCGAAUCGGGAAAAAAAGGGUUUUUUUGGGUUUUUUUGGGAAAGUAUUAUGUUACGCCGUUCGGAUCUG	-0.366
UCCUGUGCUACACAUCGUAUGUACCGAAUCGGGGUUUUUUGGGUUUUUUGGGUUUUUUGGAAAGUAUUAUGUUACGCCGUUCGGAUCUGC	-0.153
CCUCAAGUCCUGUGCUACACAUCGUAUGUACCGAAUCGGGGAGGGGAGGAGGGAAAGUAUUAUGUUACGCCGUUCGGAUCUGCACUUCCA	-0.0241
CCUCAAGUCCUGUGCUACACAUCGUAUGUACCGAAUCGGGGCCGGCCGGCCGGAAAGUAUUAUGUUACGCCGUUCGGAUCUGCACUUCCA	-0.479
UUUAGGUGUUAGACGGUACCGACAACCAGUAUUUGGGCCUGCAGAUUGGACAGCCCCAGGAUGAAGAUGAGGAAGCCACAGGUAUUCUUC	-0.208
CACAGACAACACGCACCCACACAGACACAGAGGGAAGGGGUUGGGAUGGGGACAGGGUGCACAGCAGGGCGGGGUAGGAAAACAGCCCCU	-0.151

Study 3
Target: Replicase polyprotein 1ab, nsp13 helicase (rep, Severe acute respiratory syndrome coronavirus 2, UniProt P0DTD1)
Action: inhibitor
Concentration: 20 µM
Compound	inhibition
c1ccc(C(O[C@@H]2CCCN(CCc3ccc4c(c3)OCO4)C2)c2ccccc2)cc1	-3.88%
CC(C(=O)O)c1cccc(C(=O)c2ccccc2)c1 (stereo not shown)	1%
CC1(C)S[C@@H]2[C@H](N3C(=O)[C@@H](c4ccccc4)NC3(C)C)C(=O)N2[C@H]1C(=O)O	13.3%
N[C@@H](CSCC(=O)O)C(=O)O	1.96%
N#C[C@H](O[C@@H]1O[C@H](CO[C@@H]2O[C@H](CO)[C@@H](O)[C@H](O)[C@H]2O)[C@@H](O)[C@H](O)[C@H]1O)c1ccccc1	1.75%
OCCN1CCN(CC/C=C2/c3ccccc3Sc3ccc(Cl)cc32)CC1	2.12%
C[C@@H]1C[C@H]2[C@@H]3C[C@H](F)C4=CC(=O)C=C[C@]4(C)[C@@]3(F)[C@@H](O)C[C@]2(C)[C@@]1(O)C(=O)CO	8.06%
CCn1c(=O)c2c(nc(/C=C/c3ccc(OC)c(OC)c3)n2C)n(CC)c1=O	5.19%
NCCCNCCSP(=O)(O)O	3.77%
FC(F)(F)c1ccc(/C=C/c2nc(COc3ccc(CCCCn4ccnn4)cc3)co2)cc1	4.95%
C[C@]12CC[C@@H]3c4ccc(OS(=O)(=O)O)cc4CC[C@H]3[C@@H]1CCC2=O	10.7%
C/C(=C\C(=O)Nc1ccccc1C(=O)O)c1ccc2ccccc2c1	2.61%
O=C(O)c1ccc(S(=O)(=O)N(Cl)Cl)cc1	-3.9%
N[C@@H]1c2cccnc2[C@H](OC(=O)N2CCC(n3c(=O)[nH]c4ncccc43)CC2)CC[C@H]1c1cccc(F)c1F	-0.04%
COP(=O)(OC)OC(c1ccc(Cl)cc1)P(=O)(OC)OC (stereo not shown)	4.98%
CN1CCN(C(c2ccccc2)c2ccc(Cl)cc2)CC1 (stereo not shown)	-5.27%
C=CCn1c(=O)n([C@@H]2O[C@H](CO)[C@@H](O)[C@H]2O)c2nc(N)[nH]c(=O)c21	6.65%
CN1C(=O)CC[C@H]1c1cccnc1	2.72%
O=C1Nc2ccc(I)cc2/C1=C/c1cc(Br)c(O)c(Br)c1	14.1%
CN(C)C/C=C/C(=O)Nc1cc2c(Nc3ccc(F)c(Cl)c3)ncnc2cc1O[C@H]1CCOC1	6.45%
N=C(NCc1ccc(Cl)cc1)SCCCc1c[nH]cn1	-0.29%

Study 4
Cell line: HEK-293T/ACE2
Concentration: concentration not given
Time: 16 (unit not given)
Baseline: vehicle
Structure (SMILES)	viability
CC1=C(C(=O)O)N2C(=O)[C@@H](NC(=O)[C@H](N)c3ccc(O)cc3)[C@H]2SC1	101%
Nc1nc2c(ncn2CCC(CO)CO)c(=O)[nH]1	102%
C[C@@H](c1nc(-c2ccc(C#N)cc2)cs1)[C@](O)(Cn1cncn1)c1cc(F)ccc1F	69.8%
CC(=O)c1ccc2c(c1)N(CCCN1CCC(CCO)CC1)c1ccccc1S2	104%

Study 5
Target: Replicase polyprotein 1ab, main protease (rep, Severe acute respiratory syndrome coronavirus 2, UniProt P0DTD1)
Observed: enzyme activity
Action: inhibitor
Notes: no DTT
SMILES	pIC50
COc1ccnc(C[S+]([O-])c2nc3ccc(OC(F)F)cc3[nH]2)c1OC (stereo not shown)	< 4.70
O=C1C2CC=CCC2C(=O)N1SC(Cl)(Cl)Cl (stereo not shown)	6.15
CC1=C(/C=C/C(C)=C/C=C/C(C)=C/C(=O)O)C(C)(C)CCC1	< 4.70
C[C@H](NC(=O)/C(C#N)=C/c1cccc(Br)n1)c1ccccc1	< 4.70
C=C1C(=O)O[C@H]2[C@H]1CC/C(C)=C/CC[C@@]1(C)O[C@@H]21	5.00

Excerpt of the above (study 3):
Compound	inhibition
C[C@@H]1C[C@H]2[C@@H]3C[C@H](F)C4=CC(=O)C=C[C@]4(C)[C@@]3(F)[C@@H](O)C[C@]2(C)[C@@]1(O)C(=O)CO	8.06%
CCn1c(=O)c2c(nc(/C=C/c3ccc(OC)c(OC)c3)n2C)n(CC)c1=O	5.19%
NCCCNCCSP(=O)(O)O	3.77%
FC(F)(F)c1ccc(/C=C/c2nc(COc3ccc(CCCCn4ccnn4)cc3)co2)cc1	4.95%
C[C@]12CC[C@@H]3c4ccc(OS(=O)(=O)O)cc4CC[C@H]3[C@@H]1CCC2=O	10.7%
C/C(=C\C(=O)Nc1ccccc1C(=O)O)c1ccc2ccccc2c1	2.61%
O=C(O)c1ccc(S(=O)(=O)N(Cl)Cl)cc1	-3.9%
N[C@@H]1c2cccnc2[C@H](OC(=O)N2CCC(n3c(=O)[nH]c4ncccc43)CC2)CC[C@H]1c1cccc(F)c1F	-0.04%
